Measured values from different studies.
Each numbered part is a random draw from the data of one study; scales do not carry over between parts. Positions count from the first letter of the parent shown.

Study 1
Target: CCNB3, cyclin fold, Cln2 fusion (human)
Technique: yeast growth competition, sequencing
Sample: yeast
Notes: strong parent motif
Relative to: not given
Reading: higher = stronger binding
Endpoint: normalised enrichment score
Parent: viral docking peptide; KGVKRKLFAEDSS; partner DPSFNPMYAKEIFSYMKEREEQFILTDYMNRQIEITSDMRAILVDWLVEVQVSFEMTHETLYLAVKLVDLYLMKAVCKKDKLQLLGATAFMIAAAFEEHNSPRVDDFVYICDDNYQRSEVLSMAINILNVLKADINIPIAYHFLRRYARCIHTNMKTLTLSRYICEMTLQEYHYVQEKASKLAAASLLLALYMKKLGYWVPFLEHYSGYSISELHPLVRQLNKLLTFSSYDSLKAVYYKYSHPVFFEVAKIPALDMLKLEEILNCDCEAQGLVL
KGVKRKLYAEDSS [F8Y]: 0.497
KGVKRALFAEDSS [K6A]: 0.982
KGVKRKLFAEDFS [S12F]: 2.83
KGVKRKLFAEDAS [S12A]: 2.62
KGVKRKLFADDSS [E10D]: 3.8
KGVKRKLFMEDSS [A9M]: 3.2
KGIKRKLFAEDSS [V3I]: 2.15
KGVKRKLFAECSS [D11C]: 2.27
KGVKRNLFAEDSS [K6N]: 0.904
KGVKRKLFASDSS [E10S]: 2.02
KGVKRKIFAEDSS [L7I]: 0.423
KGVKRKLFREDSS [A9R]: 1.97
KGVKRKLFKEDSS [A9K]: 2.35
KGVKRKLFALDSS [E10L]: 1.68
KGVKRKDFAEDSS [L7D]: 0.107
KGVKRKLPAEDSS [F8P]: -0.163

Study 2
Target: PABPC1L2, full length, GST fusion (mouse, UniProt A0ABA7IW68)
Technique: RNAcompete
Molecule type: RNA
Sample: in vitro
Tested at: 20 nM
Notes: 7-mer, probes averaged, single round
Relative to: mean of 7-mers
Reading: higher = stronger binding
Endpoint: 7-mer Z-score
Residues (chain): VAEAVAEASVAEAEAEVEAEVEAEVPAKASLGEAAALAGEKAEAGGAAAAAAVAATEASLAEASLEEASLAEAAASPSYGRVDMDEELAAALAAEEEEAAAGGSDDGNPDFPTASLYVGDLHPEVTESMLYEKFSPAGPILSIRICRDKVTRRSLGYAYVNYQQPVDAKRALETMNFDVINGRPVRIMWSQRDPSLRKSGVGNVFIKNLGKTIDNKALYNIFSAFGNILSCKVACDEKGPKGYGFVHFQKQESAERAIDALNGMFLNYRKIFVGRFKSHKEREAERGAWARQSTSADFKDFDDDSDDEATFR
AGUGGGC: 0.389
AAGUCUG: 0.0297
GUCGCAC: -0.329
CAGGUUU: -0.244
GUCAGUC: -0.412
CUUCCGA: -0.188
UGGGCGC: -0.0953
UGUGGUU: -0.202

Study 3
Target: Prothrombin, mature alpha-thrombin (F2, Homo sapiens, UniProt P00734)
Technique: aptamer microarray, sandwich
Molecule type: DNA with 2'F-ANA
Sample: in vitro
Tested at: 200 nM
Notes: whole 15-mer aptamer, many near background
With: Cy3 exosite-II aptamer, 400 nM
Reading: higher = stronger binding
Endpoint: mean fluorescence intensity
Oligonucleotide: GGTTGGTGTGGTTGG
2'F-ANA at 1 4 7 8 10 11 12: 55.1 a.u.
2'F-ANA at 2 4 5 6 7 9 13 14: 49.3 a.u.
2'F-ANA at 2 5 6 7 9 12 13 14: 67.3 a.u.
2'F-ANA at 1 2 4 6 8 10 11 13: 50.9 a.u.
2'F-ANA at 2 3 4 6 9 12 15: 713 a.u.
2'F-ANA at 3 8 10 13 14 15: 384 a.u.
2'F-ANA at 1 3 4 7 8 10 12 13 14: 53.1 a.u.
2'F-ANA at 1 3 5 9 10 11 15: 54.5 a.u.

Other studies, line by line
P1: PafA, mature enzyme, eGFP fusion (Elizabethkingia meningoseptica, UniProt Q9KJX5); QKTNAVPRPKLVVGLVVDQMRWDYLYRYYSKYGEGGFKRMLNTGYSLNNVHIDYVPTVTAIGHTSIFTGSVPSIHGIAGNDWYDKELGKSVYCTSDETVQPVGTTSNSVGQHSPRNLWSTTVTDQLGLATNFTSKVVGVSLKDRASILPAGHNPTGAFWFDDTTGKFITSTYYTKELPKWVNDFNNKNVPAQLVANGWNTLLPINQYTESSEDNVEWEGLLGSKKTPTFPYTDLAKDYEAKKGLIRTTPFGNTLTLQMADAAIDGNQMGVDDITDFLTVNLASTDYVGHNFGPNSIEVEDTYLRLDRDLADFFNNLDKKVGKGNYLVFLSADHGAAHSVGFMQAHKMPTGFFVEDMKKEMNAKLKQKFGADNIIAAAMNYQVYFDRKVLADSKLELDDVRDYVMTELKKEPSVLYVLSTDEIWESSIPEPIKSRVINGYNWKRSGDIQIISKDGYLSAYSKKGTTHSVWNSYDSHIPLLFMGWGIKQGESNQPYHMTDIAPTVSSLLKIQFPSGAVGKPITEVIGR
KIF4A (Homo sapiens, UniProt O95239) — cross-linked residues (GTF2E1 (Homo sapiens, UniProt P29083); cross-linking MS; cell fractions; with: DSSO): K575 to S61
P1 L389G — oxyanion analog dissociation constant (tungstate, free oxyanion; microfluidic competitive inhibition; in vitro, cell-free expressed; not given, derived from inhibition constants, unchanged parent 2230 nM; lower = stronger binding): 1.44 µM
NDUFS3 (Homo sapiens, UniProt O75489) — cross-linked residues (NDUFA7 (Homo sapiens, UniProt O95182); cross-linking MS; cell fractions; with: DMTMM): E63 to K80
ZBBX (Homo sapiens, UniProt A8MT70) — cross-linked residues (DYNC2I1 (Homo sapiens, UniProt Q8WVS4); cross-linking MS; cell fractions; with: DMTMM): K213 to D182
PDCD11 (Homo sapiens, UniProt Q14690) — interaction screen (DDX56 (Homo sapiens, UniProt Q9NY93); cross-linking MS; hits only): cross-linked

Some of these lines once more (study 1):
KGVKRKLFKEDSS [A9K]: 2.35
KGVKRKLFALDSS [E10L]: 1.68
